Assay results from different studies.
A part holds a random share of what one study measured.
Sequence of UniProt P35372 (whole entry, looked up): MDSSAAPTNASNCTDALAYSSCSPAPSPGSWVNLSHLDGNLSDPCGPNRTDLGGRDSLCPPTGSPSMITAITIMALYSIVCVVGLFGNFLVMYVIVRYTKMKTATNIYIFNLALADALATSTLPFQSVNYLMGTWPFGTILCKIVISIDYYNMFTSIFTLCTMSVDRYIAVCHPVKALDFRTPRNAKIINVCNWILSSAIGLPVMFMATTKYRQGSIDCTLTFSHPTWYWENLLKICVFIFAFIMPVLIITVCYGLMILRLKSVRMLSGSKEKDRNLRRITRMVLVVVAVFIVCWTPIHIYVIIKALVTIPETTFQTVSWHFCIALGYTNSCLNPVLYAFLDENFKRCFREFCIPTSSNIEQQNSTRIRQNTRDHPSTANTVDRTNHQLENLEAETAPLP
Sequence of UniProt P68400 (whole entry, looked up): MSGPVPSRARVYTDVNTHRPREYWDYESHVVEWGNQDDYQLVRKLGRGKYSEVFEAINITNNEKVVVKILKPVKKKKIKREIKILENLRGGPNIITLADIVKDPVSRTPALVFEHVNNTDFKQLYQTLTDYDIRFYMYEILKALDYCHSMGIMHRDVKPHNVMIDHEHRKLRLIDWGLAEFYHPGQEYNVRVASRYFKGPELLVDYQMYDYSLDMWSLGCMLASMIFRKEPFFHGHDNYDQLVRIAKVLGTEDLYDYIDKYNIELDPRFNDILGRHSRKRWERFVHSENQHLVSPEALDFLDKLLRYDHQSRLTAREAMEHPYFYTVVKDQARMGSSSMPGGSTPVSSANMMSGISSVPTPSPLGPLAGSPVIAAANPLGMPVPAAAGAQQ
Sequence of UniProt Q01959 (whole entry, looked up): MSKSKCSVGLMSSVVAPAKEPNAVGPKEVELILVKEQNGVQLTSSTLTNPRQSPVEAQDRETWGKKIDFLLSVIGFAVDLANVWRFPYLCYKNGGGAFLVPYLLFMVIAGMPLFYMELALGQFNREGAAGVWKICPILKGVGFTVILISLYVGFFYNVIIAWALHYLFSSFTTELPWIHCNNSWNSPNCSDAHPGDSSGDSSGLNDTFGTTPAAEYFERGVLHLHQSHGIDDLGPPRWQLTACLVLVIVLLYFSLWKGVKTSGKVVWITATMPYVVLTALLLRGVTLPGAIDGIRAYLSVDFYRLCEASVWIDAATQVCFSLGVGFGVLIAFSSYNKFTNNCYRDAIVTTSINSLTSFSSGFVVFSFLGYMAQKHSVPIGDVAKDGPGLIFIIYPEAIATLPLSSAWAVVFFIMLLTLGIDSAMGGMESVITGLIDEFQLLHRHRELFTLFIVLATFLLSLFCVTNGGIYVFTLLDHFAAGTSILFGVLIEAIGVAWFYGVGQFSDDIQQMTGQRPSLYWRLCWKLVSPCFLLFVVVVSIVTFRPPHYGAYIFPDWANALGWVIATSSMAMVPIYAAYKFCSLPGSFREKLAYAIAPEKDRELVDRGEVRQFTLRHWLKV
Sequence of UniProt P08908 (whole entry, looked up): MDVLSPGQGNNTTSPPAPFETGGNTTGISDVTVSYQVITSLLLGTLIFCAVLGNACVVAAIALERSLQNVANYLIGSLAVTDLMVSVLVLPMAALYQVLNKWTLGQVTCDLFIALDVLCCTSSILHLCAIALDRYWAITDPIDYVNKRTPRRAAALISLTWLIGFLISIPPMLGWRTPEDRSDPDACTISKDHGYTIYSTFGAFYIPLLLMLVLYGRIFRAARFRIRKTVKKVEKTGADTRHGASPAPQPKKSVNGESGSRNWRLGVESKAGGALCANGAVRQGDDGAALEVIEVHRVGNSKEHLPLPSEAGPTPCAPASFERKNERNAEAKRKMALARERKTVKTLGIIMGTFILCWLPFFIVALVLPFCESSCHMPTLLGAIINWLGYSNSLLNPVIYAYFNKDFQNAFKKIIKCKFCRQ

Sample 1
Target: DNA polymerase theta, helicase domain (POLQ, Homo sapiens, UniProt O75417)
Sequence of UniProt O75417 (whole entry, looked up): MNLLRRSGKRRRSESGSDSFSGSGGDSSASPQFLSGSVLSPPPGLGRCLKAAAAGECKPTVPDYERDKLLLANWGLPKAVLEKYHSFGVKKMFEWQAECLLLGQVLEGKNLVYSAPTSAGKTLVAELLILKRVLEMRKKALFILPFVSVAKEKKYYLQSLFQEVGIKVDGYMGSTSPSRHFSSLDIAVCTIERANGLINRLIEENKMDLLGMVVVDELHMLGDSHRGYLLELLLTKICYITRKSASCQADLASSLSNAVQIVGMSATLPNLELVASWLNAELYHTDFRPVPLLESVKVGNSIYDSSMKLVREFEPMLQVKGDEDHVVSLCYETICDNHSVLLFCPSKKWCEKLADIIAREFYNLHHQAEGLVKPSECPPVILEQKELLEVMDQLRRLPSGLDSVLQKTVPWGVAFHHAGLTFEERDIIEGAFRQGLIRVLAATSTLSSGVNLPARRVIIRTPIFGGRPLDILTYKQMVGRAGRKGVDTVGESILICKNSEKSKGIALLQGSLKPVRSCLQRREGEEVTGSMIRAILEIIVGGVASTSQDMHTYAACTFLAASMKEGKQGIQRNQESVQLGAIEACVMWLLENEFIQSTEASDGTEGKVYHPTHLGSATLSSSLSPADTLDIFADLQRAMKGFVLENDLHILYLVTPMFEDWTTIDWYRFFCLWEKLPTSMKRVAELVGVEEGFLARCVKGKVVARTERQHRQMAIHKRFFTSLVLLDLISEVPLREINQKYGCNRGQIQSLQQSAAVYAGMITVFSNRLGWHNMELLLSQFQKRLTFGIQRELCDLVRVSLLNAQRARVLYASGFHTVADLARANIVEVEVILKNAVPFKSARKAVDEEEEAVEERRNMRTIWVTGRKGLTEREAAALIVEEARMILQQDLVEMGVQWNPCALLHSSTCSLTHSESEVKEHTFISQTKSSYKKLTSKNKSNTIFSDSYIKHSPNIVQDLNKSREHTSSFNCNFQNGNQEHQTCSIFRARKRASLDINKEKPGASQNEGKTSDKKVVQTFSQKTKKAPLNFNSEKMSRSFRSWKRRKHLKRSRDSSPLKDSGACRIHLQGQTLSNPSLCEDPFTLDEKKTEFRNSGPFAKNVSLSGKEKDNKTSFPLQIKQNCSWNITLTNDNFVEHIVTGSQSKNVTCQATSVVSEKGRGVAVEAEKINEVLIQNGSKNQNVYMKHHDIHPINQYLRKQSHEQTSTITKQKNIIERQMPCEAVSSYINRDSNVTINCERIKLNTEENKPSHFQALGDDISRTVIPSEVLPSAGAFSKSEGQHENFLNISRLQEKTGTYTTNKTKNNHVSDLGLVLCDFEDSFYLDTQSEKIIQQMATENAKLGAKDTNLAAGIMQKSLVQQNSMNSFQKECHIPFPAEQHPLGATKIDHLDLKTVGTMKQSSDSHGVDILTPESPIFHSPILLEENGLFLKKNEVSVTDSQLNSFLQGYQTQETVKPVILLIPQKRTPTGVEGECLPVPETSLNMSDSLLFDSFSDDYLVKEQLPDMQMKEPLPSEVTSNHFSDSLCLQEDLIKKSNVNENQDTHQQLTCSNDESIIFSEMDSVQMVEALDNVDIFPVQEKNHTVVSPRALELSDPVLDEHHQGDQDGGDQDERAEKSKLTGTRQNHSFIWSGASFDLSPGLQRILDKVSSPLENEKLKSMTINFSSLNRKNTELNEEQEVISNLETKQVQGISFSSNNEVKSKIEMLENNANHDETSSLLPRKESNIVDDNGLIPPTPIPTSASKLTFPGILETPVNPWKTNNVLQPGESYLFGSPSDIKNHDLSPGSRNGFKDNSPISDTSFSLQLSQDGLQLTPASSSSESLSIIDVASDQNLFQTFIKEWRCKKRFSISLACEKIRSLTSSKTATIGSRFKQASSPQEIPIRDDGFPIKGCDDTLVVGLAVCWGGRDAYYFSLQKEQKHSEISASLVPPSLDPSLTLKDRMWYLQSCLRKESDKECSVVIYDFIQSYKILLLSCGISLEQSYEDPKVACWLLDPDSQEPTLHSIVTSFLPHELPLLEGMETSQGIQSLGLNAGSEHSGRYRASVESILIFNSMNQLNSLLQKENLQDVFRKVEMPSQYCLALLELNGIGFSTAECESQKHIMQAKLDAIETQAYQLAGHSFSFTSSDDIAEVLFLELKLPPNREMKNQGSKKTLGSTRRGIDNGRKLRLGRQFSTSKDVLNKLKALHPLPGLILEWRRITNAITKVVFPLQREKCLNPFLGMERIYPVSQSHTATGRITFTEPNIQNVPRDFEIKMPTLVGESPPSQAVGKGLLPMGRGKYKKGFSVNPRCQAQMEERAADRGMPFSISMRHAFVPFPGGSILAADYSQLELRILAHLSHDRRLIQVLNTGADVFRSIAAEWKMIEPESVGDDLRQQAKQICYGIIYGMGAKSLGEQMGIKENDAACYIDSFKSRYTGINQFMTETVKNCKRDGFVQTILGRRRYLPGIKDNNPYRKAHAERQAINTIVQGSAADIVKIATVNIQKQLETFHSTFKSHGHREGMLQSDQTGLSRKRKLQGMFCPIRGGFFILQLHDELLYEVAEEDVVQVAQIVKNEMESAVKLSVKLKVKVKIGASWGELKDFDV
Effect on: enzyme activity
Tested at: concentration not given
Setting: without ssDNA
Compound | remaining activity [%]
COc1cc(C(c2c(O)c3ccccc3oc2=O)c2c(C)n(C)n(-c3ccccc3)c2=O)ccc1OCC(=O)O (stereo not shown) | 77.1
CN(N=O)c1ccc(O)c(O)c1 | 94.9
CCN(CC)C(=O)c1ccc2c(c1)N(Cc1ccc(C(F)(F)F)cc1)C(=O)c1ccccc1S2 | 30.2
CSc1ccc(C(c2c(O)c3ccccc3oc2=O)c2c(C)n(C)n(-c3ccccc3)c2=O)cc1 (stereo not shown) | 106

Sample 2
SMILES: CC(C)(C)c1cc(C=C(C#N)C#N)cc(Br)c1O
Effect on: enzyme activity
Action: inhibitor
Tested at: 0.5 µM
target | method | baseline | remaining activity
Mast/stem cell growth factor receptor Kit (KIT, Homo sapiens, UniProt P10721) | – | control | 97.9%
cGMP-dependent protein kinase 1 (PRKG1, Homo sapiens, UniProt Q13976) | – | control | 103%
Activin receptor type-1-like (ACVRL1, Homo sapiens, UniProt P37023) | – | – | 105%
Casein kinase I isoform alpha (CSNK1A1, Homo sapiens, UniProt P48729) | – | control | 84.5%
Casein kinase II subunit alpha (CSNK2A1, Homo sapiens, UniProt P68400) | – | control | 99.3%
Muscle, skeletal receptor tyrosine-protein kinase (MUSK, Homo sapiens, UniProt O15146) | – | – | 103%
Serine/threonine-protein kinase 33 (STK33, Homo sapiens, UniProt Q9BYT3) | radiometric | – | 91.1%
Serine/threonine-protein kinase TAO1 (TAOK1, Homo sapiens, UniProt Q7L7X3) | – | – | 97.9%

Sample 3
SMILES: COc1ccc2c(c1)O[C@@H](c1ccc(OC)c(OC)c1)C[C@H]2NC(=O)C1(c2ccc3c(c2)OC(F)(F)O3)CC1
Tested at: 10 µM
target | effect on | method | inhibition [%]
Mu-type opioid receptor (OPRM1, Homo sapiens, UniProt P35372) | binding | radioligand binding | 4.18
Muscarinic acetylcholine receptor M3 (CHRM3, Homo sapiens, UniProt P20309) | binding | radioligand binding | 2.35
Sodium-dependent serotonin transporter (SLC6A4, Homo sapiens, UniProt P31645) | binding | radioligand binding | 5.75
Sodium-dependent dopamine transporter (SLC6A3, Homo sapiens, UniProt Q01959) | binding | radioligand binding | -12.2
5-hydroxytryptamine receptor 1A (HTR1A, Homo sapiens, UniProt P08908) | ligand displacement | – | -32.3
D(1B) dopamine receptor (DRD5, Homo sapiens, UniProt P21918) | binding | radioligand binding | 20
Kappa-type opioid receptor (OPRK1, Homo sapiens, UniProt P41145) | binding | radioligand binding | 27.4
Sodium-dependent noradrenaline transporter (SLC6A2, Homo sapiens, UniProt P23975) | binding | radioligand binding | -14.1

Sample 4
Target: Calcium/calmodulin-dependent protein kinase type II subunit alpha (CAMK2A, Homo sapiens, UniProt Q9UQM7)
Sequence of UniProt Q9UQM7 (whole entry, looked up): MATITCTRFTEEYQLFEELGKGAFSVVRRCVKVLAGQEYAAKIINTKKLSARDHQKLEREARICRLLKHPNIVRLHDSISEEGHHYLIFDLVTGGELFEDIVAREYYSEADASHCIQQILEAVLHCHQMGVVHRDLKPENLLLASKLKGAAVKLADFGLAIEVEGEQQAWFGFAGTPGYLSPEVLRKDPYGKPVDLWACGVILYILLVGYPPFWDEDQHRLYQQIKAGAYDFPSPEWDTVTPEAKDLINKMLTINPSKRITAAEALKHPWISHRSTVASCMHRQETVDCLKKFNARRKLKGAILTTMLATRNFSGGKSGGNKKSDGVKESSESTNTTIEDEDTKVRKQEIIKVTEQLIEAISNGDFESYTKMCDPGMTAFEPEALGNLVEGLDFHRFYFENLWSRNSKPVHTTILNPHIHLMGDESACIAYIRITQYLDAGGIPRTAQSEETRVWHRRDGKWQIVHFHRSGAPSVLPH
Effect on: enzyme activity
Action: inhibitor
Tested at: 10 µM
Structure (SMILES) | inhibition [%]
CN1C(=O)CCS(=O)(=O)C1c1ccc(Cl)cc1 (stereo not shown) | -7
CC1(C)COC(=O)C1O (racemic) | -12
COc1ccc(C(=O)O[C@H]2CC[C@@]3(C)[C@@H]4CC[C@H]5[C@]6(O)C[C@H](O)[C@@]7(O)[C@@H](CN8C[C@@H](C)CC[C@H]8[C@@]7(C)O)[C@]6(O)C[C@@]53O[C@]24O)cc1OC | 35
CO[C@@H]1C[C@@H](C[C@H]2CC[C@H](C)[C@H]([C@@H](C)C(=O)O)O2)O[C@]2(O[C@](C)([C@H]3CC[C@@](C)([C@@H]4O[C@@H]([C@H]5O[C@@](O)(CO)[C@H](C)C[C@@H]5C)C[C@@H]4C)O3)C[C@H]2C)[C@@H]1C | -39
CC1=C[C@@H]2C(=O)[C@]3(C=C(C)[C@H](O)[C@@]3(O)[C@@H]1O)[C@H](C)C[C@@H]1[C@H]2C1(C)C | -28

For quick reference, copied from above (sample 3):
target | effect on | method | inhibition [%]
5-hydroxytryptamine receptor 1A (HTR1A, Homo sapiens, UniProt P08908) | ligand displacement | – | -32.3
D(1B) dopamine receptor (DRD5, Homo sapiens, UniProt P21918) | binding | radioligand binding | 20
Kappa-type opioid receptor (OPRK1, Homo sapiens, UniProt P41145) | binding | radioligand binding | 27.4
Sodium-dependent dopamine transporter (SLC6A3, Homo sapiens, UniProt Q01959) | binding | radioligand binding | -12.2
